Measured values pooled from the literature.
Compare with care: the assays were run in different laboratories. ≈ marks a conversion by molar mass, not a printed value.

| Structure (SMILES) | assay | system | conditions | measurement | result |
| --- | --- | --- | --- | --- | --- |
| O=C1Nc2ccccc2C(=O)CCCc2ccccc21 | nephelometry | aqueous buffer | 30 min, pH 6.5 | kinetic solubility | > 100 µg/mL |
| Cc1ccc(NC(C)(C)C(=O)Nc2ccc(F)c(Cl)c2)cc1S(=O)(=O)N1CCOCC1 | – | water | – | kinetic solubility | 110 µM |
| CC(/C=C/C=C(\C)C(=O)O)=C\C=C\C=C(C)\C=C\C=C(/C)C(=O)O | shake flask | FaSSIF | 1 h, pH 6.5, 37 °C | solubility | 3.2 µg/mL (≈ 0.00974 mM) |
| CS(=O)(=O)c1cnc(NS(=O)(=O)c2ccc(N)cc2)nc1.Cl | – | PBS | 2 h, pH 7.4, 25 °C | kinetic solubility | 391 µM |
| O=C1Nc2ccc(OC(F)(F)F)cc2C(=O)CCc2ccccc21 | nephelometry | aqueous buffer | 30 min, pH 6.5 | kinetic solubility | ≤ 12.5 µg/mL |
| Cc1[nH]c(C(=O)Nc2ccc(C(=O)NCC(=O)O)cc2N2CCNCC2)c(Cl)c1Cl.Cl | – | PBS | 24 h, pH 7.4, 25 °C | solubility | 98 µg/mL |
| COc1cc(Cc2cnc(N)nc2N)cc(OC)c1OC | shake flask | simulated gastric fluid | pH 1.2, acidic | solubility | 12900 µg/mL (≈ 44.3 mM) |
| Nc1ccc(S(=O)(=O)Nc2ncccn2)cc1 | – | PBS | 2 h, pH 7.4, 25 °C | kinetic solubility | 397 µM |
| COc1ccc2c(c1)C(=O)CCc1ccccc1C(=O)N2 | nephelometry | aqueous buffer | 30 min, pH 6.5 | kinetic solubility | 50 to 100 µg/mL |
| Cl.O=C(O)CNC(=O)c1ccc(NC(=O)c2cc(Br)c(Br)[nH]2)c(N2CCNCC2)c1 | – | PBS | 24 h, pH 7.4, 25 °C | solubility | 27 µg/mL |

Some of these lines once more:
| Structure (SMILES) | assay | system | conditions | measurement | result |
| --- | --- | --- | --- | --- | --- |
| O=C1Nc2ccc(OC(F)(F)F)cc2C(=O)CCc2ccccc21 | nephelometry | aqueous buffer | 30 min, pH 6.5 | kinetic solubility | ≤ 12.5 µg/mL |
